{"data": "Experimental data of several laboratories", "note": "Each numbered part is a random draw from the data of one study; scales do not carry over between parts."}
{"data": "Set 1", "target": "RNA binding protein fox-1 homolog 2, RRM domain, GST-SBP tag (RBFOX2, Homo sapiens, UniProt O43251-10, residues 100-194)", "technique": "RNA Bind-n-Seq", "molecule type": "RNA", "matrix": "in vitro", "tested at": "365 nM", "notes": "natural RNA segment, single round, ends assumed", "reference": "no-protein control", "direction": "higher = stronger binding", "constant ends, left off below": "GGGAGUUCUACAGUCCGACGAUC … UGGAAUUCUCGGGUGCCAA", "Target sequence (chain)": "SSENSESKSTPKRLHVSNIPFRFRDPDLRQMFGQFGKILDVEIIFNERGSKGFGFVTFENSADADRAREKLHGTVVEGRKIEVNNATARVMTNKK"}
{"Oligonucleotide": "GCUAGGGGCUUUGUUCCUGCUUUUUGUUUUGUUUGGUUUUACUAUCAGAUGGAUGGAUUUGUGUUUGUCUCAGAGCAGCAUAUACAUGCAGUCAGUAAGCAUGUUUGAAA", "RBNS enrichment (R)": 0.83}
{"Oligonucleotide": "GGAAAUAAUUUGAGUUGAUUCAGAAAUCCUGGCAUGUGACAAUUUUGUUAAAUUACCAAGUUUGGUUUUUAAUAAUUUCUCAAUAUUAUGCGCCAAGAUCUAAUUUUAAA", "RBNS enrichment (R)": 0.775}
{"Oligonucleotide": "CAUAGUUUCUAUGAGCGAUAUAAAGAGUUCCUGUUUCCCUUCACUGGGCCUAAGCCUUUCUGCAUUACACUUGAAGCCUUCAGUCAUUUCCUACCACUUAUUACAACAGU", "RBNS enrichment (R)": 0.778}
{"Oligonucleotide": "UUAGAAACACUCAGUCUCUGGUCCCAGAGGAUGGCUUCUCAGGGCAUGCCACAAGUUAAAGGUCACCUUCCUGAAAGAUGAAUGAGAAAGCUGCCCAUUCUCAAGACUCA", "RBNS enrichment (R)": 0.367}
{"Oligonucleotide": "GUUAAGUUCAGCCAAGGGACCCAAUGCAGACAUCCUUCGUGGACAGGGUUCAGCCUUGGGAGGCCAGGCUGGCUGGCUCACUCUCUUUCUCAUUCACUGCCAGACCCCAC", "RBNS enrichment (R)": 0.418}
{"Oligonucleotide": "UAAACCUUUCUGUAUUUGAGAGAGAUGCAAACUUCUAGAGUAAAAGUUGAAUAAAAAGUCACAGAGGAUGUAAAUUUUGUACAGGACUAGAAUGUAAAUGAAGCUUGCUU", "RBNS enrichment (R)": 1.6}
{"Oligonucleotide": "CUGUCUGUCAGUCAGGACCUUCUGGUAUAGGUGAUGUAAAAUAACCGUACAAUAUUAAUGCAUGCGAUUCCAUAAUGCUUAGUGAACUGUAUGAAUAUUACUCAAAGUUA", "RBNS enrichment (R)": 4.24}
{"Oligonucleotide": "UGCUGCGGGAGCUGAAGCCUGUCCUGUCCCAGGGUAACCUGCUUACAUCUGGACUUCAGAAUCUGGCACACAACAAAAGUGCCUGGCACCCACUGCUGCUGCCUUUCAUU", "RBNS enrichment (R)": 0.349}
{"data": "Set 2", "target": "Sal-like protein 4, full length isoform A (SALL4, Homo sapiens, UniProt Q9UJQ4, residues 1-1053)", "technique": "universal PBM", "molecule type": "double-stranded DNA, one strand shown", "matrix": "in vitro", "tested at": "600 nM", "notes": "8-mer, flanks averaged, mean of replicates", "direction": "higher = stronger binding", "chain of UniProt Q9UJQ4 (whole entry, looked up)": "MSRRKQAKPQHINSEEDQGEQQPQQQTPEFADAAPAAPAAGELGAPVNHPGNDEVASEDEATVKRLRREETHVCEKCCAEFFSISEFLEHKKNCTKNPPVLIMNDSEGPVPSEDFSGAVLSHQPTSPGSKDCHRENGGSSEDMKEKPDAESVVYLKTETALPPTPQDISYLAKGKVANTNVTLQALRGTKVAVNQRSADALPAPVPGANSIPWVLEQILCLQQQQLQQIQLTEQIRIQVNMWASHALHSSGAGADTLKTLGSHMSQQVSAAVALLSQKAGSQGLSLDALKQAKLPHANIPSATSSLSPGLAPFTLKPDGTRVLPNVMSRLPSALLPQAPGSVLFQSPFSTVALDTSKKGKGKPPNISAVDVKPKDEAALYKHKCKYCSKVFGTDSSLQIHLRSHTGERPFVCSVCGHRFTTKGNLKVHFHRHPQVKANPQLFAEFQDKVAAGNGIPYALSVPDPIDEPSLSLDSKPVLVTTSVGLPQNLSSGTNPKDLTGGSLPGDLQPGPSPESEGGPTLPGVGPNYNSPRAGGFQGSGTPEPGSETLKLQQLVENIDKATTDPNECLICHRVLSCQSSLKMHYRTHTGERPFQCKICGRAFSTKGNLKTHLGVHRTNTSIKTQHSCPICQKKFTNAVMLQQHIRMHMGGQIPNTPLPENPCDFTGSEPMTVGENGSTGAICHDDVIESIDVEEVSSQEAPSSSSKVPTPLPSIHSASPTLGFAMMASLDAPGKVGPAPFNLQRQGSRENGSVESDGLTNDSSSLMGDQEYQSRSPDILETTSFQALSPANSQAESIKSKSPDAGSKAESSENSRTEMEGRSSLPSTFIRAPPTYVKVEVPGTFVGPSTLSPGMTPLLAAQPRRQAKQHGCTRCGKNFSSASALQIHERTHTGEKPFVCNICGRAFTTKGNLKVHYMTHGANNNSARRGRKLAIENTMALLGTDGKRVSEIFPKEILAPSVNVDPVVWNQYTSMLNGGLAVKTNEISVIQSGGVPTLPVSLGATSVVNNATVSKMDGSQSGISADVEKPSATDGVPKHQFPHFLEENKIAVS"}
{"Oligonucleotide": "CGTGGAAA", "E-score": 0.158}
{"Oligonucleotide": "CGTTGTTA", "E-score": 0.16}
{"Oligonucleotide": "AGGGCGAC", "E-score": -0.292}
{"Oligonucleotide": "CCTGCACA", "E-score": -0.152}
{"Oligonucleotide": "GTGCACAC", "E-score": -0.0706}
{"Oligonucleotide": "AGCGTGGC", "E-score": -0.214}
{"Oligonucleotide": "AGTTCAGG", "E-score": -0.178}
{"Oligonucleotide": "ACCCTTTA", "E-score": 0.0779}
{"Oligonucleotide": "ATCTGACG", "E-score": -0.138}
{"Oligonucleotide": "CTTGATCA", "E-score": 0.0813}
{"Oligonucleotide": "TGCTATAA", "E-score": 0.185}
{"Oligonucleotide": "ACTAGAAA", "E-score": 0.175}
{"Oligonucleotide": "AGGAGCCA", "E-score": -0.207}
{"Oligonucleotide": "AGTTCTGG", "E-score": -0.141}
{"Oligonucleotide": "CCGGGCGA", "E-score": -0.308}
{"Oligonucleotide": "CACTGATG", "E-score": -0.143}
{"Oligonucleotide": "ACTGAAGT", "E-score": 0.0814}
{"Oligonucleotide": "CAAGGCTA", "E-score": -0.00148}
{"Oligonucleotide": "AATTTGAC", "E-score": 0.201}
{"Oligonucleotide": "GAAATACA", "E-score": 0.247}
{"Oligonucleotide": "AGCAGAAT", "E-score": 0.071}
{"Oligonucleotide": "ATGAACTG", "E-score": 0.181}
{"Oligonucleotide": "CCAGATCG", "E-score": -0.194}
{"Oligonucleotide": "CAGTCTAA", "E-score": 0.147}
{"Oligonucleotide": "CCCTGGAG", "E-score": -0.302}
{"data": "Set 3", "target": "PABPC1L2, full length, GST fusion (mouse, UniProt A0ABA7IW68)", "technique": "RNAcompete", "molecule type": "RNA", "matrix": "in vitro", "tested at": "20 nM", "notes": "7-mer, probes averaged, single round", "reference": "mean of 7-mers", "direction": "higher = stronger binding"}
{"Oligonucleotide": "ACCGCCU", "7-mer Z-score": -0.229}
{"Oligonucleotide": "GGAUCCG", "7-mer Z-score": -0.112}
{"Oligonucleotide": "CCGGGAA", "7-mer Z-score": 0.0116}
{"Oligonucleotide": "CUACCAC", "7-mer Z-score": -0.103}
{"Oligonucleotide": "ACUUGGA", "7-mer Z-score": 0.0134}
{"Oligonucleotide": "CGAGAAA", "7-mer Z-score": 1.75}
{"Oligonucleotide": "CAUCGUA", "7-mer Z-score": -0.193}
{"Oligonucleotide": "GUUUGUG", "7-mer Z-score": -0.465}
{"Oligonucleotide": "CCAGCGA", "7-mer Z-score": 0.0968}
{"Oligonucleotide": "UGAUUAC", "7-mer Z-score": -0.186}
{"Oligonucleotide": "AACGCUG", "7-mer Z-score": -0.0174}
{"Oligonucleotide": "GUCGACU", "7-mer Z-score": -0.217}
{"Oligonucleotide": "UGAGCCA", "7-mer Z-score": -0.202}
{"Oligonucleotide": "UGCCGAG", "7-mer Z-score": -0.101}
{"Oligonucleotide": "CACUGUA", "7-mer Z-score": -0.195}
{"Oligonucleotide": "UACACGU", "7-mer Z-score": -0.235}
{"Oligonucleotide": "AAGUUGG", "7-mer Z-score": 0.126}
{"Oligonucleotide": "CUGCAAG", "7-mer Z-score": -0.157}
{"Oligonucleotide": "GAUAUAC", "7-mer Z-score": -0.122}
{"data": "Set 4", "target": "RING finger protein unkempt homolog, zinc fingers 1-6, GST-SBP tag (UNK, Homo sapiens, UniProt Q9C0B0, residues 30-357)", "technique": "RNA Bind-n-Seq", "molecule type": "RNA", "matrix": "in vitro", "tested at": "not given", "notes": "RNA with constant flanks, human-mouse chimeric sites, ends assumed", "reference": "input RNA pool", "direction": "higher = stronger binding", "constant ends, left off below": "GGGAGUUCUACAGUCCGACGAUC … CAACAGAGGAUUGAGCAUCA", "chain of UniProt Q9C0B0 (30-357, looked up)": "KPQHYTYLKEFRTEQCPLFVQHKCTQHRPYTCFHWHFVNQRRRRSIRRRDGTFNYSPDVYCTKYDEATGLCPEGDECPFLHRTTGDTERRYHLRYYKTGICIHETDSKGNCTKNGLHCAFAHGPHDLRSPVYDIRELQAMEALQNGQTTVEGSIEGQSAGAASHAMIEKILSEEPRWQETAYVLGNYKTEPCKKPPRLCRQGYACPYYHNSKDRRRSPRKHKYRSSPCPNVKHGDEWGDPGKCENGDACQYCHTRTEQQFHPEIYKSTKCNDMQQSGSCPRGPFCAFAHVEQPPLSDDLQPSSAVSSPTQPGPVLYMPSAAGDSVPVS"}
{"Oligonucleotide": "UUCAAAGGCUGUGUUAUCUGUGUCAUUUCAUAAGUAACUCUGGGGGAUAAGUGGAAGGUUCUUUUGUUUAAUUUUCCCCCAAAUGAAGCCAAAGUGUGUGUUGAAGAACUGAGAAAAAAU", "bound/input enrichment [ratio]": 0.165}
{"Oligonucleotide": "AACUUCGUGCAUCGGUUUCCCUUUGUAGCUGUUUCAAUUGGCUUCCUUGUAAAUAAAGAGAUGGAGUUUGGAAUUGUGUACAGCUGUGUGGAAGAUAAGAUGUACACUGCCAGAAAAGGG", "bound/input enrichment [ratio]": 0.28}
{"Oligonucleotide": "UCUGGUCACACUCGUGUGUAUGGUGUUUGCUUUGUGGACACUUCACUGGGCAAGUUUUUCAUCGGCCAGUUUUCGGAUGACCGCCACUGUUCCAGAUUUAGGACUCUAGUGGCUCACUAU", "bound/input enrichment [ratio]": 0.178}
{"Oligonucleotide": "AAAGUGAUGACUAUGUUUGUCCAACGACAGGUAUUUUCGGAGAGCAAAGAUGAGAUUGCUUUAGUCCUCUAUGGCACAGAUGGCACUGAUAAUGCCCUUGCUGGCAAGGAUCAGUAUCAG", "bound/input enrichment [ratio]": 0.228}
{"Oligonucleotide": "GGUGGGGUGGUCAUUGCCGUUUGAGCUGCUGAUUUUCAUGAGUCGCCUUCAAAACUCUCGCAUAGGGUUGACAAUGUGGGGGGGUGGGAAAUCUAGCUUAUUCUUUUAUUUUCAAGUCCA", "bound/input enrichment [ratio]": 8.62}
{"Oligonucleotide": "CUGAGGAUACCACUGAAAGAGACAUUAAAGAAUCAUUUUGACGGCUCGUUCGUGCAAGAAUAGUCACUGAUCGGGAAACUGGUUCUUCCAAAGGGUUUGGUUUUGUAGACUUUAAUAGUG", "bound/input enrichment [ratio]": 0.779}
{"Oligonucleotide": "ACACAAUAUGAGACCAACAGCAUGGACUUCAAAGUUGGGGCGGAUGGGACAGUCUUCGCCACCCGGGAGCUGCAGGUCCCCUCCGAGCAGGUGGCGUUCACGGUGACUGCGCGGGAAAGC", "bound/input enrichment [ratio]": 0.218}
{"Oligonucleotide": "GGCCUGGGACCGUCCUGGGCUAGUACAAAUAGCGGCAGUGGAGGCUCGAGAGGAAAGUUGUUAGUGGGAGGCAGUGGUAGAGGCCGUCAUGUACGGUCUUUACACGAAUAGAUGUGUUCU", "bound/input enrichment [ratio]": 0.618}
{"note": "A few entries again (set 3):"}
{"Oligonucleotide": "UGAGCCA", "7-mer Z-score": -0.202}
{"Oligonucleotide": "UGCCGAG", "7-mer Z-score": -0.101}
{"Oligonucleotide": "CACUGUA", "7-mer Z-score": -0.195}
{"Oligonucleotide": "UACACGU", "7-mer Z-score": -0.235}
{"Oligonucleotide": "AAGUUGG", "7-mer Z-score": 0.126}
